Measurements collected from several papers.
A part holds a random share of what one study measured. ± marks the error that the study gave. Converted amounts (≈) assume the structure as drawn.
Sequence of UniProt P34914 (whole entry, looked up): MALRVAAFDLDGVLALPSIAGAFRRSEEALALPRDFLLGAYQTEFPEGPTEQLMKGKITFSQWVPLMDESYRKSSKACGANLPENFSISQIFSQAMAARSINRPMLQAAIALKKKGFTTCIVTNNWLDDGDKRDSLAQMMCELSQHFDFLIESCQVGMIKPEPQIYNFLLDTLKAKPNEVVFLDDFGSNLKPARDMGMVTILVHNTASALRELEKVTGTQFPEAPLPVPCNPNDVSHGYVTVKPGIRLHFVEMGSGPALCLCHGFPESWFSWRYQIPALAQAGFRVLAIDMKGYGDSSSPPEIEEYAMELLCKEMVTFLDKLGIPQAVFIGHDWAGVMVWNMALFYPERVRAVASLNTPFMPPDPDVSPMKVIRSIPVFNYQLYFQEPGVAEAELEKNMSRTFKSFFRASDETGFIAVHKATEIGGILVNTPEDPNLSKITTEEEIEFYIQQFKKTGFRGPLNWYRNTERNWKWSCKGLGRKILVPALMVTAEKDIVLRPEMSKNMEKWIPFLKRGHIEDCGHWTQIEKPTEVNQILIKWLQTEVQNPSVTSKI
Sequence of UniProt O00519 (whole entry, looked up): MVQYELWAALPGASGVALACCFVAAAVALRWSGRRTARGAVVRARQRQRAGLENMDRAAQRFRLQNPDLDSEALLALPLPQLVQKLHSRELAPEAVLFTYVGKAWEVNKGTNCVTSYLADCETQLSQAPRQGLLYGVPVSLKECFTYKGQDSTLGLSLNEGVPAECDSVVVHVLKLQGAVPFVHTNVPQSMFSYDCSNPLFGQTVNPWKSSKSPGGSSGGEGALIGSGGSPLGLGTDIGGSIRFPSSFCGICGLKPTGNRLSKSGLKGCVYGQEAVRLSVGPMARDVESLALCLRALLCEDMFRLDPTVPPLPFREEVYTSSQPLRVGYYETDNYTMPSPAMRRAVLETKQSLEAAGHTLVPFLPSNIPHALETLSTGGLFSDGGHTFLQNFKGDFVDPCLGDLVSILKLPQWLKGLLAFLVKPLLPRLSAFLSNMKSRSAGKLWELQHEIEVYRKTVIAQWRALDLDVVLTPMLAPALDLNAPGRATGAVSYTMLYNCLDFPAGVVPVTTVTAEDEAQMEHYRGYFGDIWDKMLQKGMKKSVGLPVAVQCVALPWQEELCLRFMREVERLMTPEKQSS

Set 1
Structure (SMILES): Cc1cc(OCc2nnc(SC3CCCC3)n2-c2cccnc2)ccc1-c1ccc(S(C)(=O)=O)cc1
cell line	CC50 [µM]
HOP-92	10.4
NCI-H522	> 100
NCI-H226	9.22
HL-60(TB)	> 100

Further values, each from its own experiment
Molecule	target or system	assay	system	conditions	measurement	value
O=C(Nc1ccc(-c2ccc3ccccc3n2)cc1)C1CCN(Cc2ccc(F)cc2)CC1	FAAH (Homo sapiens, UniProt O00519)				IC50	0.134 µM
pyc (Rhizobium etli, UniProt Q2K340)	NC(=O)OP(=O)(O)O	steady-state kinetics		pH 7.5, 25 °C, apparent	kcat	0.04017 ± 0.000167 s⁻¹
O=C(Nc1ccc(-c2cnc3ccccc3c2)cc1)C1CCN(CC2CCCCC2)CC1			sodium phosphate buffer, 1% DMSO	pH 7.4	solubility	63 to 125 µM (≈ 26.9 to 53.4 µg/mL)
Cc1ccc(S(=O)(=O)Nc2c(N3CCC(NC(=O)Nc4ccc(Cl)c(F)c4)CC3)c(=O)c2=O)cc1	Ephx2 (Mus musculus, UniProt P34914)				IC50	0.59 ± 0.047 µM
